Measured values pooled from the literature.
Each line is one published result; not all experiments were run side by side. Numbers after ± are the reported error.
Genome polyprotein NS3 helicase domain: Genome polyprotein, NS3 helicase domain (Hepatitis C virus genotype 1b, UniProt Q9WMX2)
DRD3: D(3) dopamine receptor (DRD3, Homo sapiens, UniProt P35462)

SMILES | target | test | system | setting | inhibition
O=C(O)CCc1ccc(NCc2cccc(Oc3ccccc3)c2)cc1 | Genome polyprotein NS3 helicase domain | DNA binding, inhibitor | hepatitis C virus | 100 µM, with: Cy5-dT15 DNA | 0%
Cn1cc(-n2cnc3c(NCc4nc5cc(Cl)c(Cl)cc5[nH]4)nc(N4CCOCC4)nc32)cn1 | Cyclin-dependent kinase 12, with cyclin K (CDK12, Homo sapiens, UniProt Q9NYV4) | kinase activity, inhibitor, ADP-Glo | – | 0.0027 µM | 8%
NS(=O)(=O)NC[C@@H](CO)NCc1c[nH]c2c(O)nc(O)nc12 | Hypoxanthine-guanine-xanthine phosphoribosyltransferase (Plasmodium falciparum, UniProt P20035) | enzyme activity, inhibitor, coupled IMPDH | – | up to 100 µM | inactive
C=C(C)[C@H]1CC=C(C(=O)O)CC1 | Genome polyprotein NS3 helicase domain | DNA binding, inhibitor | hepatitis C virus | 100 µM, with: Cy5-dT15 DNA | 2%
Clc1cncc(OC[C@@H]2CN(CCN3CCc4ccccc43)CCO2)c1 | DRD3 | radioligand binding | – | concentration not given, with: [3H]N-methylspiperone | -8.3%
Cc1nc(N=Nc2ccc(S(=O)(=O)O)cc2S(=O)(=O)O)c(COP(=O)(O)O)c(C=O)c1O | Genome polyprotein NS3 helicase domain | DNA binding, inhibitor | hepatitis C virus | 100 µM, with: Cy5-dT15 DNA | 0%
COc1cc(NC(C)=O)c(Cl)cc1C(=O)Nc1nccs1 | Melatonin receptor type 1B (MTNR1B, Homo sapiens, UniProt P49286) | – | – | 10 µM | 28.8%
O=C1NC(=O)C(c2ccccc2)(c2ccccc2)N1 | Voltage-gated potassium channel, KQT; KCNQ2(Kv7.2)/KCNQ3(Kv7.3) (KCNQ3/KCNQ2, Homo sapiens, UniProt O43525+O43526) | ion current, antagonist, SyncroPatch patch clamp | HEK293 | 30 µM | 5%
Cc1cc(-c2ccnc3[nH]cc(F)c23)cc(F)c1[C@@]1(O)[C@H](C)CN(C2CCS(=O)(=O)CC2)C[C@@H]1C | CDK11 and CDK8 | ATP probe binding, KiNativ, measured: Lys2 site | HEK293T cell lysate | 0.1 µM | 8.9%
COc1cc(C2NCCc3cc(O)c(O)cc32)ccc1O (stereo not shown) | tyrosinase | enzyme activity, inhibitor | – | 100 µM, with: levodopa | 12.8 ± 3.66%
CCCCS(=N)(=O)CCC(N)C(=O)O (racemic) | Genome polyprotein NS3 helicase domain | DNA binding, inhibitor | hepatitis C virus | 100 µM, with: Cy5-dT15 DNA | 1%
COc1cc(Cl)c(C(=O)N[C@@H](CN[C@H]2CC[C@@H](N)CC2)Cc2ccc(C#N)cc2)cc1-c1ccc(CN[C@H](C)c2ccc(C)cc2)o1 | Adenosine receptor A2b (ADORA2B, Homo sapiens, UniProt P29275) | agonist response, antagonist | human cells | 10 µM, A2B antagonist | -4%
CC(C)NCC(O)COc1cccc2ccccc12 (stereo not shown) | Glutamate receptor 2 (Homo sapiens, UniProt P42262) | ion current, negative allosteric modulator, SyncroPatch patch clamp | HEK293 | 10 µM | 1%
CCC(C)N(C)C(=O)c1cc2ccccc2c(-c2ccccc2Cl)n1 (stereo not shown) | Genome polyprotein NS3 helicase domain | DNA binding, inhibitor | hepatitis C virus | 100 µM, with: Cy5-dT15 DNA | 0%
CN(C(=O)n1cnc(-c2ccc[n+]([O-])c2)c1)C1CCCCC1 | Voltage-dependent N-type calcium channel subunit alpha-1B (Homo sapiens, UniProt Q00975) | – | – | 10 µM | -3.12%
CC[C@@H]1[C@H](F)C(=O)N[C@@H]1COc1nccc2cc(C(N)=O)c(OC)cc12 | eIF-2-alpha kinase GCN2 (EIF2AK4, Homo sapiens, UniProt Q9P2K8) | ATP-site probe binding, ActivX profiling, measured: GCN2 | THP-1 cell lysate | 0.04 mM, Lys1 site | -11.3%
Cc1cc(OC(C)C)ccc1C(=O)C(C)(C)NC(=O)c1sccc1C | succinate-cytochrome c oxidoreductase (complex II-III), Solanum tuberosum | – | cv Norin No. 1, mitochondrial fraction | concentration not given | no inhibition
O=C1NC(=O)c2cc(Nc3ccccc3)c(Nc3ccccc3)cc21 | Genome polyprotein NS3 helicase domain | DNA binding, inhibitor | hepatitis C virus | 100 µM, with: Cy5-dT15 DNA | 0%
Clc1cccc(OC[C@H]2CN(CCN3CCc4ccccc43)CCO2)c1 | DRD3 | radioligand binding | – | concentration not given, with: [3H]N-methylspiperone | 40.4%

A few entries again:
SMILES | target | test | system | setting | inhibition
NS(=O)(=O)NC[C@@H](CO)NCc1c[nH]c2c(O)nc(O)nc12 | Hypoxanthine-guanine-xanthine phosphoribosyltransferase (Plasmodium falciparum, UniProt P20035) | enzyme activity, inhibitor, coupled IMPDH | – | up to 100 µM | inactive
C=C(C)[C@H]1CC=C(C(=O)O)CC1 | Genome polyprotein NS3 helicase domain | DNA binding, inhibitor | hepatitis C virus | 100 µM, with: Cy5-dT15 DNA | 2%
Clc1cncc(OC[C@@H]2CN(CCN3CCc4ccccc43)CCO2)c1 | DRD3 | radioligand binding | – | concentration not given, with: [3H]N-methylspiperone | -8.3%
